Experimental data of several laboratories.
Every numbered part comes from another study and shows a few of its results, in no order. Positions count from the first letter of the parent shown.

Block 1
Target: MAFG, bZIP domain (human)
Technique: DHFR protein complementation
Medium: yeast
Notes: single substitutions, most at no-binding floor
Reference: wild-type JUN-FOS pair
Direction: higher = stronger binding
Endpoint: binding fitness
Starting sequence: JUN, bZIP domain (human); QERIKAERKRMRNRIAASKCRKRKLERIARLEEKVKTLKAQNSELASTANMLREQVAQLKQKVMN; partner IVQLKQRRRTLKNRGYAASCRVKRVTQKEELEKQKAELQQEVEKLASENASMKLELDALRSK
R53S: -1.22 natural log
Q41I: -1.46 natural log
A49H: -1.48 natural log
M51T: -1.5 natural log

Block 2
Substance: PhoQ, residues 284 288 289 292 302 303 WVSSAF
Technique: Sort-seq
Refers to: YFP reporter
Medium: E. coli
Notes: PhoQ-PhoP variant library
Together with: 10 µM Mg2+
Reference: high Mg2+ state
Direction: higher = stronger signaling
Endpoint: fold induction
PhoP, residues 12 14 15 18 19 NYFRM (Escherichia coli, UniProt P23836): 7.53
PhoP, residues 12 14 15 18 19 QYFSL (Escherichia coli, UniProt P23836): 9.16
PhoP, residues 12 14 15 18 19 TQALL (Escherichia coli, UniProt P23836): 14.6

Block 3
Target: CCNB2, cyclin fold, Cln2 fusion (human)
Technique: yeast growth competition, sequencing
Medium: yeast
Notes: strong parent motif
Reference: not given
Direction: higher = stronger binding
Endpoint: normalised enrichment score
Starting sequence: PKMYT1 docking peptide (human); SFEPRNLLSLFED; partner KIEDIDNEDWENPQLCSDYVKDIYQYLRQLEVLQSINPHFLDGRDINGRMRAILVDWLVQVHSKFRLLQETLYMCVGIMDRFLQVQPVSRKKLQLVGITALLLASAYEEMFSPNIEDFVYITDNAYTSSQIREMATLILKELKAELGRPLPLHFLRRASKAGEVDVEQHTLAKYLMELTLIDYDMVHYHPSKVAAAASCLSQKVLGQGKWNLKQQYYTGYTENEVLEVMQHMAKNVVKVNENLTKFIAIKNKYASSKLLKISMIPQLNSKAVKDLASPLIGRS
S9D: 1.16
S9F: 1.2
R5T: 0.753
D13T: 0.855
N6W: -0.302
P4R: 1.3
L7K: -0.602

Block 4
Target: TAR DNA-binding protein 43, full length, His tag (TARDBP, Homo sapiens, UniProt Q13148, residues 1-414)
Technique: RNA Bind-n-Seq
Form: RNA
Medium: in vitro
Tested at: 20 nM
Notes: 6-mer, flanks averaged, single round
Together with: 150 mM LiCl
Reference: input library
Direction: higher = stronger binding
Endpoint: 6-mer enrichment (R)
GCCUAU: 0.943
ACGAUA: 0.797
CUUCUU: 1
UCCAUG: 0.913
UUCGAA: 0.857
AAUCCC: 0.922
AAUCAU: 0.865
ACGGCG: 0.935
